# Published values gathered from unrelated publications.
# A part holds a random share of what one study measured. Substitutions count along the parent as printed.

# Set 1
# Target: RNA binding protein fox-1 homolog 2, RRM domain, GST-SBP tag (RBFOX2, Homo sapiens, UniProt O43251-10, residues 100-194)
# Technique: RNA Bind-n-Seq
# Form: RNA
# Sample: in vitro
# Tested at: 365 nM
# Notes: natural RNA segment, single round, ends assumed
# Relative to: no-protein control
# Reading: higher = stronger binding
# Residues (chain): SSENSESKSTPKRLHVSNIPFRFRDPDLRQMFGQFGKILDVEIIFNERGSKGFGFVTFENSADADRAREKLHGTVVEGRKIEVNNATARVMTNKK
Oligonucleotide,RBNS enrichment (R)
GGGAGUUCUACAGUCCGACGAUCAAACUUCUAAAAAAGGUCAUGAGAUAAAACAGCUAUUCUUAUGCCUAAAUUAACAGUGGAAAAUACUUUUCUGUAAACAGCCAGGGUAAUAAAAACCAUGAACUAAUUGUUGGAAUUCUCGGGUGCCAA,0.483
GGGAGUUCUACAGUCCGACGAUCCCUGGGGGGGGCAGUGGCCCUCAGCUCUGCCCGCUGGAGCGGUUGAGUGCAGAAGGGUGCGCCUCUUCCCUCUACCCCCGCACCACCUGCUGUGUGCCAGCCUGAGACGGUGGAAUUCUCGGGUGCCAA,0.55
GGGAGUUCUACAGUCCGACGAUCGUUUUACUGAGUCAGAUGGUGGAAAGACAGAUGUCUCUAUACUUUCUUAACAAGCCACUCUGUCCCAUAACAUGCACUUGGAAUCUCUCCUAAGUUCCAGAGGCCCCACUUGGAAUUCUCGGGUGCCAA,0.347
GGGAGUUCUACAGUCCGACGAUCAGGACCACAGUGAACAAGAGCACUUCCAAUCCCAUGCAGAGGGCAAGAGGCAGAAUCCACCAAAGGCCUUGAACUACCCAUGCUGGGGAAAAGCAUAAAGGGCUGCCUAGUGGAAUUCUCGGGUGCCAA,1.53
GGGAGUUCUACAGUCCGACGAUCCCAGAGGAUUACCUUAAGAGUCUCUGCAUUAAACUAGAAAAGUUGCACCUAGAAGGGACAGAGGGUGGGGCUACCUGCUAUCAGGCAUGAACAUGUGAAUUGCUGGUUAGUGGAAUUCUCGGGUGCCAA,8.04
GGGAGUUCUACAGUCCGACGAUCUAAAUAUGGAUAUACCAAGUAUUUAAUGACUAAUGCACAUAGAAAUUAAUAUUAAUACAGUGAUCUUUUGAAUGUUCCAGGUAUAGGCUUUUUAAAAAGUGUUAAGAGUGUGGAAUUCUCGGGUGCCAA,0.646
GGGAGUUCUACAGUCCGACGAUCCCCUCCUGCUCCCCCCGCCCGACUUUGACUCUGAAUCAGCAUUUGGUCCUAUUCAGAGGACUCUUACCACGACGUUUCUGUUCUACACUUGGGUGGAGACCAGUUGACCAUGGAAUUCUCGGGUGCCAA,0.534
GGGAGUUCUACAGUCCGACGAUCAUUGUGAAAGCUCACAGGGGUGUUUUUUGGAAUCAUUUGCUGAGUCAUUUUCUCAAAUCAUAUUCCAUUGUAUCAGUUAACAUAUAGUUUUAAAUGUAUGUAUUAUAAAUUGGAAUUCUCGGGUGCCAA,0.529
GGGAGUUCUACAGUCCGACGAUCCGUGGCCCUGCAUUUCUGGGUAGGGCUGGCAAUGGUUGCCUUAACCCUGGCUCCUGGCCCGAGCCUGGGGCUCCCUGGGCCCUGCCCCACCCACCUUAUCCUCCCACCCCUGGAAUUCUCGGGUGCCAA,0.393
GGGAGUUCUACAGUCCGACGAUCGUUCUCCCUCAGCCCACUAGCCAAGAGCUACCAGCGAUGCUCAGGGAAGGCUUGAGCUGGGGUCCUCCUCUGCGGAGCUUGGAGAAGGUACCCAUCCUGGUCCUAUGCUGUGGAAUUCUCGGGUGCCAA,0.404
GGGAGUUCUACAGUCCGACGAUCUGAGCAUCCUCUCACCAGACUAUGCCCUCCUGGAGGGGCUGGGAAUAUAGCAAGAACGAAAAGACUGUGCAAGGCCUAGAGCCAGCAAAGAUGCUGAUGUAGCCAGGCCAUGGAAUUCUCGGGUGCCAA,1.07
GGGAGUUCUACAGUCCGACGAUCGCUAAGUUGGAUUUCGUGCUGCUGUAAAUUGGAACUGUCGACUCUAAGUGCCUUUACUUAGGAAAAGCCAGUACCACAUCAUGGCUUCCUUCUUCACUCAAAGGCUGCUUUGGAAUUCUCGGGUGCCAA,0.214

# Set 2
# Target: Histone acetyltransferase KAT6A, both winged helices, GST fusion (KAT6A, Homo sapiens, UniProt Q92794, residues 1-181)
# Technique: protein binding microarray
# Form: double-stranded DNA, one strand shown
# Sample: in vitro
# Tested at: not given
# Notes: 8-mer, flanks averaged, mean of 2 arrays, mostly near background
# Relative to: not given
# Reading: higher = stronger binding
# Construct (chain): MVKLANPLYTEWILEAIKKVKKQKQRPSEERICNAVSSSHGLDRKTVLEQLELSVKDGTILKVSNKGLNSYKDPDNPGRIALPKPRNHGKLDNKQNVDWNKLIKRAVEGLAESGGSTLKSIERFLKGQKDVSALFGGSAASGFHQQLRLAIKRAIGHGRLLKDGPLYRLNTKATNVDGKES
Oligonucleotide,E-score
GGGGAGAC,-0.0282
AAAAAACC,-0.0529
GGGAGAAA,-0.166
ACTGTTAA,-0.0311
AATAGGTG,-0.297
GGTAAGCA,-0.159
AAAAGGTT,-0.106
GGCATTGA,0.00833
GGGAGCCA,-0.0337
AGCATGGG,-0.126
AACTACTA,-0.0757
AATAGGGT,-0.195
CAGCGTAG,0.0588
AATAGGGC,-0.108
GCACGTAC,0.0114
CTAATGCA,-0.0203
CCCGCTCA,0.228
CATTTTCA,-0.157
CTCATTTA,-0.247
TAACGTTA,0.0341
GTCGGCTA,0.193
CTCGCAAA,-0.0964
AGCAATAT,-0.151
AAGTTCCA,-0.0475

# Set 3
# Target: Prothrombin, mature alpha-thrombin (F2, Homo sapiens, UniProt P00734)
# Technique: aptamer microarray, sandwich
# Form: DNA with 2'F-ANA
# Sample: in vitro
# Tested at: 200 nM
# Notes: whole 15-mer aptamer, many near background
# With: Cy3 exosite-II aptamer, 400 nM
# Reading: higher = stronger binding
# Oligonucleotide: GGTTGGTGTGGTTGG
Modification,mean fluorescence intensity
2'F-ANA at 1 2 3 8 10 12 13 14 15,53.3 a.u.
2'F-ANA at 1 3 5 6 7 9 10 11 13,46.5 a.u.
2'F-ANA at 1 3 4 5 6 8 11 12 13 15,71.3 a.u.
2'F-ANA at 1 2 4 5 6 9 12 15,104 a.u.
2'F-ANA at 1 2 4 5 8 11 12 13,69.7 a.u.
2'F-ANA at 2 3 5 6 7 13,63.6 a.u.
2'F-ANA at 2 3 6 8 9 10 11 12 13 15,321 a.u.
2'F-ANA at 1 11 13 15,139 a.u.
2'F-ANA at 2 5 10 13 14,45.7 a.u.
2'F-ANA at 4 6 7 11 12 13 15,275 a.u.
2'F-ANA at 1 2 3 5 9 10 11 13 14,46.8 a.u.
2'F-ANA at 1 2 4 5 6 8 10 11 12 14,46.5 a.u.
2'F-ANA at 1 3 5 7 13 14,44.7 a.u.
2'F-ANA at 5 7 11 14 15,46.4 a.u.
2'F-ANA at 1 2 3 4 5 9 13,47.1 a.u.
2'F-ANA at 2 3 5 9 11 13 15,67.9 a.u.
2'F-ANA at 1 3 6 9 10 11 12 13 14 15,59.3 a.u.
2'F-ANA at 2 4 5 9 14 15,54 a.u.
2'F-ANA at 1 3 5 6 8 11 12 14 15,50.6 a.u.
2'F-ANA at 1 3 5 8 13 14,55.2 a.u.
2'F-ANA at 1 3 4 5 6 8 9 10 14 15,48.5 a.u.
2'F-ANA at 1 4 6 8 10 11 13 15,55.1 a.u.
2'F-ANA at 1 4 7 12 15,316 a.u.
2'F-ANA at 1 2 4 5 6 10 13 14 15,48.1 a.u.

# Set 4
# Target: CCNA2, cyclin fold, Cln2 fusion (human)
# Technique: yeast growth competition, sequencing
# Sample: yeast
# Notes: strong parent motif
# Relative to: not given
# Reading: higher = stronger binding
# Starting sequence: SCAPER docking peptide (human); SNARRSLNFGGST
Change,normalised enrichment score
S1H,5.76
N2Q,6.48
G11S,6.55
N8V,4.21
R4M,2.7
N2A,5.97
N8K,6.38
N2C,5.54
S12C,6.52
N8F,5.55
L7M,1.14
T13Y,6.34
N2E,4.38
N8W,6.16
R4P,0.937
G10M,5.8
S1R,6.4
S6W,5.13

# A few entries again (set 2):
Oligonucleotide,E-score
GTCGGCTA,0.193
GGGAGAAA,-0.166
CTCGCAAA,-0.0964
AAGTTCCA,-0.0475
AATAGGGC,-0.108
AACTACTA,-0.0757
ACTGTTAA,-0.0311
GCACGTAC,0.0114
TAACGTTA,0.0341
